Published values of several laboratories.
Protocols differ between the studies behind these lines. Numbers after ± are the reported error.
Cell line: HeLa

CCCCNC(P(=O)(O)O)P(=O)(O)O — cytotoxicity (MTT; serum-free medium; 100 µM, 24 h): 8 ± 3%
CC[C@H](C)[C@@H]1NC(=O)[C@H](C)NC(=O)[C@H](C)NC(=O)[C@H]([C@@H](C)O)NC(=O)[C@H](Cc2ccccc2)NC(=O)[C@@H]2CSSC[C@@H]3NC(=O)[C@H](C(C)C)NC(=O)[C@H](CCCCN)NC(=O)[C@H](CO)NC(=O)[C@H](CCCCN)NC(=O)[C@@H]4CSSC[C@H](NC(=O)[C@H](CO)NC(=O)[C@H](CCC(=O)O)NC(=O)CNC(=O)[C@H](CSSC[C@H](NC(=O)CNC1=O)C(=O)N[C@@H](CO)C(=O)N4)NC(=O)[C@@H]1CCCN1C(=O)[C@H](Cc1ccccc1)NC(=O)CNC(=O)[C@H](CC(N)=O)NC(=O)[C@H](CCCCN)NC(=O)[C@H](Cc1ccc(O)cc1)NC3=O)C(=O)N[C@@H](C)C(=O)N[C@@H](Cc1ccc(O)cc1)C(=O)N[C@@H](CC(C)C)C(=O)N1CCC[C@H]1C(=O)N2 — CC50 (resazurin; 24 h): 6.01 ± 1.21 µM
COc1cccc(NC[C@@H](O)Cn2c3ccc(Br)cc3c3cc(Br)ccc32)c1 — GI50 (CellTiter-Glo; 48 h): 23.5 µM
CN(C)c1ccc2c(c1)Oc1cc(N(C)C)ccc1C21OC(=O)c2cc(C(=O)NCCCC[C@H](NC(=O)[C@@H](N)CSSC[C@H](N)C(=O)N[C@@H](CCCCNC(=O)c3ccc4c(c3)C(=O)OC43c4ccc(N(C)C)cc4Oc4cc(N(C)C)ccc43)C(=O)N[C@@H](CCCNC(=N)N)C(=O)N[C@@H](CCCNC(=N)N)C(=O)N[C@@H](CCCNC(=N)N)C(=O)N[C@@H](CCCNC(=N)N)C(=O)N[C@@H](CCCNC(=N)N)C(=O)N[C@@H](CCCNC(=N)N)C(=O)N[C@@H](CCCNC(=N)N)C(=O)N[C@@H](CCCNC(=N)N)C(=O)NCC(N)=O)C(=O)N[C@@H](CCCNC(=N)N)C(=O)N[C@@H](CCCNC(=N)N)C(=O)N[C@@H](CCCNC(=N)N)C(=O)N[C@@H](CCCNC(=N)N)C(=O)N[C@@H](CCCNC(=N)N)C(=O)N[C@@H](CCCNC(=N)N)C(=O)N[C@@H](CCCNC(=N)N)C(=O)N[C@@H](CCCNC(=N)N)C(=O)NCC(N)=O)ccc21 — SYTOX Blue-positive cells (10 µM, 1 h): 47%
CCN(CC)CC(=O)NNc1ccccc1Sc1cc(Cl)ccc1[N+](=O)[O-] — CC50: 30 µM
S=c1n(-c2ccccc2)c2c3ccccc3nc3[n+]2[n]1[Ir-3]12([S]3)([c]3cccc4ccc5ccc[n+]1c5c34)[c]1cccc3ccc4ccc[n+]2c4c13 — Pearson correlation coefficient (10 µM, 24 h, added: ER-Tracker Red 1 µM): 0.9
CC(=O)Nc1ccc(-c2csc(NCc3ccccc3)n2)cc1 — cytotoxicity (resazurin; concentration not given): not toxic
CCc1ccc(C(=O)N[C@@H](CO)C(=O)N[C@H](C(=O)N2CCC[C@H]2C(=O)N[C@@H](CC(N)=O)C(=O)NCC(=O)N[C@@H](CC(C)C)C(=O)O)[C@@H](C)OP(=O)(O)O)cc1 — viability (30 µM, 24 h): 64%
CC[C@H](C)[C@@H]1NC(=O)[C@H](C)NC(=O)[C@H](C)NC(=O)[C@H]([C@@H](C)O)NC(=O)[C@H](Cc2ccccc2)NC(=O)[C@@H]2CSSC[C@@H]3NC(=O)[C@H](C(C)C)NC(=O)[C@H](CCCCN)NC(=O)[C@H](CO)NC(=O)[C@H](CCCCN)NC(=O)[C@@H]4CSSC[C@H](NC(=O)[C@H](C)NC(=O)[C@H](CCC(=O)O)NC(=O)CNC(=O)[C@H](CSSC[C@H](NC(=O)CNC1=O)C(=O)N[C@@H](CO)C(=O)N4)NC(=O)[C@@H]1CCCN1C(=O)[C@H](Cc1ccccc1)NC(=O)CNC(=O)[C@H](CC(N)=O)NC(=O)[C@H](CCCCN)NC(=O)[C@H](Cc1ccc(O)cc1)NC3=O)C(=O)N[C@@H](C(C)C)C(=O)N[C@@H](Cc1ccc(O)cc1)C(=O)N[C@@H](CC(C)C)C(=O)N1CCC[C@H]1C(=O)N2 — CC50 (resazurin; 24 h): 4.15 ± 2.88 µM
O=C(Cc1ccc2ccccc2c1)N[C@H](Cc1ccccc1)C(=O)N[C@H](Cc1ccccc1)C(=O)N[C@H](Cc1ccc(OP(=O)(O)O)cc1)C(=O)O — viability (MTT; 400 µM, 24 h): ~10%
CC[C@H](C)[C@@H]1NC(=O)[C@H](C)NC(=O)[C@H](C)NC(=O)[C@H]([C@@H](C)O)NC(=O)[C@H](Cc2ccccc2)NC(=O)[C@@H]2CSSC[C@@H]3NC(=O)[C@H](C(C)C)NC(=O)[C@H](CCCCN)NC(=O)[C@H](CO)NC(=O)[C@H](CCCCN)NC(=O)[C@@H]4CSSC[C@H](NC(=O)[C@H](CO)NC(=O)[C@H](CCC(=O)O)NC(=O)CNC(=O)[C@H](CSSC[C@H](NC(=O)CNC1=O)C(=O)N[C@@H](CO)C(=O)N4)NC(=O)[C@@H]1CCCN1C(=O)[C@H](Cc1ccccc1)NC(=O)CNC(=O)[C@H](CC(N)=O)NC(=O)[C@H](CCCCN)NC(=O)[C@H](Cc1ccc(O)cc1)NC3=O)C(=O)N[C@@H](C(C)C)C(=O)N[C@@H](C)C(=O)N[C@@H](CC(C)C)C(=O)N1CCC[C@H]1C(=O)N2 — CC50 (resazurin; 24 h): 4.27 ± 0.34 µM
O=c1c(Br)c2oc3c(CN(Cc4ccccn4)Cc4cnccn4)c(O)ccc3nc-2c2ccccc12 — viability (MTT; 5 µM, 24 h; relative to: DMSO): 88 ± 5%
CC(C)C[C@H](NC(=O)OCc1ccccc1)C(=O)N[C@@H](CC1CCNC1=O)C(O)S(=O)(=O)O (some centres unmarked) — CC50 (6 days): > 10 µM
CC[C@H](C)[C@@H]1NC(=O)[C@H](C)NC(=O)[C@H](C)NC(=O)[C@H]([C@@H](C)O)NC(=O)[C@H](Cc2ccccc2)NC(=O)[C@@H]2CSSC[C@@H]3NC(=O)[C@H](C(C)C)NC(=O)[C@H](CCCCN)NC(=O)[C@H](C)NC(=O)[C@H](CCCCN)NC(=O)[C@@H]4CSSC[C@H](NC(=O)[C@H](CO)NC(=O)[C@H](CCC(=O)O)NC(=O)CNC(=O)[C@H](CSSC[C@H](NC(=O)CNC1=O)C(=O)N[C@@H](CO)C(=O)N4)NC(=O)[C@@H]1CCCN1C(=O)[C@H](Cc1ccccc1)NC(=O)CNC(=O)[C@H](CC(N)=O)NC(=O)[C@H](CCCCN)NC(=O)[C@H](Cc1ccc(O)cc1)NC3=O)C(=O)N[C@@H](C(C)C)C(=O)N[C@@H](Cc1ccc(O)cc1)C(=O)N[C@@H](CC(C)C)C(=O)N1CCC[C@H]1C(=O)N2 — CC50 (resazurin; 24 h): 0.8 ± 0.03 µM
N=C(N)NCCC[C@@H]1NC(=O)[C@H](Cc2csc3ccccc23)NC(=O)[C@@H](Cc2ccccc2)NC(=O)[C@H](Cc2ccccc2)NC(=O)[C@H](CCC(=O)NCCOCCOCC(=O)N[C@@H](CCCCNC(=O)c2ccc3c(c2)C(=O)OC32c3ccc4cc(O)ccc4c3Oc3c2ccc2cc(O)ccc32)C(N)=O)NC(=O)[C@@H](CCCNC(=N)N)NC(=O)[C@H](CCCNC(=N)N)NC(=O)[C@@H](CCCNC(=N)N)NC1=O — endosomal escape efficiency (5.0 µM, 10% FBS; relative to: CPP12): 383 ± 49%
CC[C@H](C)[C@@H]1NC(=O)[C@H](C)NC(=O)[C@H](C)NC(=O)[C@H]([C@@H](C)O)NC(=O)[C@H](Cc2ccccc2)NC(=O)[C@@H]2CSSC[C@@H]3NC(=O)[C@H](C(C)C)NC(=O)[C@H](CCCCN)NC(=O)[C@H](CO)NC(=O)[C@H](CCCCN)NC(=O)[C@@H]4CSSC[C@H](NC(=O)[C@H](CO)NC(=O)[C@H](CCC(=O)O)NC(=O)CNC(=O)[C@H](CSSC[C@H](NC(=O)CNC1=O)C(=O)N[C@@H](CO)C(=O)N4)NC(=O)[C@@H]1CCCN1C(=O)[C@H](Cc1ccccc1)NC(=O)CNC(=O)[C@H](C)NC(=O)[C@H](CCCCN)NC(=O)[C@H](Cc1ccc(O)cc1)NC3=O)C(=O)N[C@@H](C(C)C)C(=O)N[C@@H](Cc1ccc(O)cc1)C(=O)N[C@@H](CC(C)C)C(=O)N1CCC[C@H]1C(=O)N2 — CC50 (resazurin; 24 h): 0.67 ± 0.03 µM
N=C(N)NCCC[C@H](NC(=O)[C@@H]1CCCN1C(=O)[C@H](CC(N)=O)NC(=O)[C@H](Cc1ccccc1)NC(=O)[C@H](Cc1c[nH]cn1)NC(=O)[C@H](Cc1ccccc1)NC(=O)[C@H](Cc1ccccc1)NC(=O)Cc1ccc2ccccc2c1)C(=O)O — intracellular concentration (200 µM, 1 h, 37 °C): 297 µM

A few entries again:
O=C(Cc1ccc2ccccc2c1)N[C@H](Cc1ccccc1)C(=O)N[C@H](Cc1ccccc1)C(=O)N[C@H](Cc1ccc(OP(=O)(O)O)cc1)C(=O)O — viability (MTT; 400 µM, 24 h): ~10%
CCN(CC)CC(=O)NNc1ccccc1Sc1cc(Cl)ccc1[N+](=O)[O-] — CC50: 30 µM
